Measurements of several laboratories.
Protocols differ between the studies behind these lines. Several values in a cell are separate wells, animals, samples, runs or records. ± gives the spread as reported.

The viability of COc1cc(OC)c2c(=O)[nH]c(-c3cc(C)c(OCCO)c(C)c3)nc2c1 is reported as 120% (HBL-1; 0.1 µM, 120 h).
COc1cnc2cccc(N3CCc4c(cc(Cn5ccnc5C)cc4-c4cn(C)nc4C(F)(F)F)C3=O)c2c1 gave an EC50 of over 30 µM (HCC95; cell growth, inhibitor; 120 h).
The inhibition of COCCn1c2c([n+](Cc3cnccn3)c1C)C(=O)c1ccccc1C2=O is reported as 95.3% (BT-12; cell viability, MTT; 10 µM, 72 h).
C[C@H](Nc1ccc2c(c1)OCCn1cc(N3C(=O)OC[C@H]3C(F)F)nc1-2)C(N)=O gave a GR50 of over 5 µM (A2058; resazurin growth rate inhibition; 72 h).
For COc1cc2c(cc1OC)-c1[nH]nc(Nc3cccc(F)c3)c1C2, the inhibition was -1% (HeLa expressing Ub(G76V)-GFP; Ub(G76V)-GFP degradation, cycloheximide chase; 12 µM).
For CCn1cc(-c2cc(Cn3ccoc3=N)cc3c2CCN([C@@H](C)c2cc(OC)ccn2)C3=O)c(C(F)(F)F)n1, the EC50 was over 30 µM (RPMI-7951; cell growth, inhibitor; 120 h).
The inhibition of CC[C@]1(O)C[C@@H]2CN(CCc3c([nH]c4ccccc34)[C@@](C(=O)OC)(c3cc4c(cc3OC)N(C)[C@H]3[C@@](O)(C(=O)OC)[C@H](OC(C)=O)[C@]5(CC)C=CCN6CC[C@]43[C@@H]65)C2)C1 is reported as 87.8% (BT-12; cell viability, MTT; 10 µM, 72 h).
CCCCCCOC(=O)[C@]1(O)C[C@@H]2O[C@@]1(C)n1c3ccccc3c3c4c(c5c6ccccc6n2c5c31)C(=O)NC4 — result for “relative cell number”: 44.3% (SK-OV-3; ATP; 3D gellan gum culture; 10 µM, 4 days; baseline: untreated).
O=C(/C=C/C#Cc1cccc(NS(=O)(=O)c2ccccc2)c1)NO gave a viability of 24.7% (HBL-1; 0.5 µM, 120 h).
With CCn1cc(-c2cc(Cn3ccnc3)cc3c2CCN([C@H](c2cc(OC)ccn2)C2CC2)C3=O)c(C(F)(F)F)n1 the EC50 was 7.44 µM (G-402; cell growth, inhibitor; 120 h).
For CCS(=O)(=O)c1nc(C2CC2)cc(C(F)(F)F)n1, “cells with nuclear RelA” read 68.6% and 89.6% (HeLa Kyoto; RelA nuclear import, high content imaging; 0.05 µM, 3 h, with: 1 µM PMA, 60 min).
The GI50 of O=C(/C=C/C=C/C=C/C1CCCCC1)NC1=C[C@@](O)(/C=C/C=C/C=C/C(=O)NC2=C(O)CCC2=O)[C@@H]2O[C@@H]2C1=O is reported as 17 µM (RPMI-7951; cell growth, CellTiter-Glo; 78 h).
The internalized activity of O=C(O)CC[C@H](NC(=O)N[C@@H](CCCCNC(=O)CCCCCCC(=O)NCCCC[C@@H](NC(=O)[C@H](CCC(=O)O)NC(=O)[C@H](CCC(=O)O)NC(=O)CCC(=O)NCCCN1CC[S][Tc]2(=[O])[S]CC[N]2CC1)C(=O)O)C(=O)O)C(=O)O (stereo partly shown) [technetium-99m labelled] is reported as 2.89 ± 0.21 %AD/mg protein (LNCaP; 25 nM, 1 h, 37 °C).
CCCCc1oc2ccccc2c1C(=O)c1cc(I)c(OCCN(CC)CC)c(I)c1 — result for mRNA level: “decreased” (mouse embryonic stem cells; item: Meox1, Foxc2 peak expression; 4 µM).
Cn1cc(-c2ccc(-c3cncc(Cl)c3N3CCC4(CCNC4=O)CC3)cc2)cn1: “log2 fold change” 2.2 (COLO 205; gene expression, microarray, item: TRAF1 mRNA; concentration not given, 6 h; baseline: untreated cells).
The inhibition of O=C1c2ccccc2-c2nc3nnnn3nc21 is reported as 86% (HeLa expressing Ub(G76V)-GFP; Ub(G76V)-GFP degradation, inhibitor, cycloheximide chase; 12 µM).
CC[S+]([O-])c1nc(-c2ccccc2)cc(C(F)(F)F)n1 (stereo not shown) — result for “cells with nuclear RelA”: 66.2% and 79.7% (HeLa Kyoto; RelA nuclear import, high content imaging; 0.5 µM, 3 h, with: 1 µM PMA, 60 min).
The necrotic cells of COc1ccc(NC(=S)N/N=C/c2cccc3cc4ccccc4nc23)cc1 is reported as 0.69 ± 0.27% (HeLa; annexin V/PI flow cytometry; IC25, 48 h).
N[C@@H](CCC(=O)O)C(=O)O — result for “lowest effective concentration”: 1 µM (hiPSC glutamatergic neurons; network burst frequency, multi-electrode array; 2 h).
With C=CCn1c(=O)c2cnc(Nc3ccc(N4CCN(C)CC4)cc3)nc2n1-c1ccc2c(n1)[C@@](O)(CC)CC2 the γH2AX-positive cells was 29.3% (OVCAR-3; flow cytometry; concentration not given, G2/M phase).
With Cc1cc(OCc2nnc(SC3CCCC3)n2-c2cccnc2)ccc1-c1ccc(S(C)(=O)=O)cc1 the inhibition was 94.8% (BT-12; cell viability, MTT; 10 µM, 72 h).
CC/C(=N\NC(=O)C(C)Nc1ccccc1)c1ccc(O)c(C)c1O (stereo not shown) — result for “LATS band intensity”: 1 ± 0.26 (SK-OV-3; Western blot; 10 µM, 6 h, 3D gellan gum culture, unit not given; baseline: DMSO).
For COC(=O)c1sc(-c2cccs2)cc1NC(=O)/C=C/C(=O)O, “fatty acid efflux” read “decreased” (3T3-L1 adipocytes; lipolysis; concentration not given, 24 h, with: 20 µM forskolin or basal).
With C[C@@H](N)[C@H]1CC[C@H](C(=O)Nc2ccncc2)CC1 the inhibition was 24% (HeLa expressing Ub(G76V)-GFP; Ub(G76V)-GFP degradation, cycloheximide chase; 12 µM).
Under colony formation, CC(C)[C@H](NC(=O)c1cc(Cl)ccc1OCCNC(=O)OC(C)(C)C)C(=O)Nc1ccc([N+](=O)[O-])cc1Cl is recorded as “inhibited” (MDA-MB-231; 0.1 to 10 µM, 2 weeks).
The inhibition of CN(C)Cc1c(C(=O)NCCOc2ccc(C(=O)NO)cc2)oc2ccccc12 is reported as 90.6% (BT-12; cell viability, MTT; 10 µM, 72 h).
Cc1cc(C)c(CNC(=O)c2cc(-c3ccc(CN4CCOCC4)cc3)cc3c2cnn3C2CCCC2)c(=O)[nH]1 gave a viability of 110% (HBL-1; 0.5 µM, 120 h).
NC(=O)NOCCCCCCCCCCCCCC[P+](c1ccccc1)(c1ccccc1)c1ccccc1.O=C([O-])C(F)(F)F — result for “concentration at maximal effect”: 1.5 µM (mouse CD4 T cells, reporter; IFNγ-YFP expression, flow cytometry; 144 h).
The inhibition of CC(C)n1cnc2c(Nc3cccc(Cl)c3)nc(NCCO)nc21 is reported as 6% (HeLa expressing Ub(G76V)-GFP; Ub(G76V)-GFP degradation, cycloheximide chase; 12 µM).
CC(=O)Nc1ccc(C(=O)Nc2ccccc2N)cc1 gave a viability of 62% (HBL-1; 0.1 µM, 120 h).
CC(C)C[C@@H](C=O)NC(=O)[C@H](CC(C)C)NC(=O)[C@H](CC(C)C)NC(=O)OCc1ccccc1 has a remaining activity of 81% (HeLa expressing Ub(G76V)-GFP; Ub(G76V)-GFP degradation, cycloheximide chase; 0.01 µM; baseline: DMSO).
With COc1ccc(Cn2ccc3ccc(C(=O)NO)cc32)cc1 the viability was 107% (HBL-1; 1 µM, 120 h).
CC(=O)Nc1cccc(-n2c(=O)n(C3CC3)c(=O)c3c(Nc4ccc(I)cc4F)n(C)c(=O)c(C)c32)c1 gave a fractional effect of 0.642 (NCI-H2087 (BRAF L597V); 100.00 nM; baseline: DMSO).
NC(=O)c1cccc(NC(=O)/C=C/c2c[nH]c3ccccc23)c1 gave a viability of 95.3% (HBL-1; 0.1 µM, 120 h).
The TNF production of Nc1ncnc2c1ncn2[C@@H]1O[C@H](CO)[C@@H](O)[C@H]1O is reported as 1550 a.u. and 2130 a.u. and 1690 a.u. (activated human T cells; 100 µM; higher = more TNF).
For CNC(=O)c1c(F)cccc1Nc1nc(Nc2cc3c(cc2OC)CCN3C(=O)CN(C)C)nc2[nH]ccc12, the ATP level was 73.7% (hiPSC cardiomyocytes; CellTiter-Glo; concentration not given, 24 h; baseline: vehicle).
O=C(Nc1cccc(Nc2cc(Nc3cccc(C(F)(F)F)c3)ncn2)c1)C1CC1 gave an inhibition of 39% (HeLa expressing Ub(G76V)-GFP; Ub(G76V)-GFP degradation, inhibitor, cycloheximide chase; 12 µM).
The sensitizing concentration of O=C(NO)c1ccc(Cn2cnc3c(Nc4cccc([N+](=O)[O-])c4)ncnc32)cc1 is reported as 1.25 µM (NB4-R2 venetoclax-resistant cells; cell viability, MTT; 48 h, with: venetoclax).
O=C(C[C@@H](C(F)F)n1ccc(F)n1)N1CCC(O)(Cn2cnc3c(cnn3-c3ccc(F)cc3)c2=O)CC1: “apoptotic cells (early plus late)” 9.97% and 12.7% and 11.8% (CHP-212 resistant cells (pooled); annexin V-PI flow cytometry; 1 µM, 48 h).
Clc1ccc(N/N=C(\c2ccccc2)c2ccccn2)nc1 gave a viability of 16.1% (HBL-1; 0.1 µM, 120 h).
O=C(O)C=Cc1cc(Br)c(Br)c(Br)c1Br gave an inhibition of 14% (HeLa expressing Ub(G76V)-GFP; Ub(G76V)-GFP degradation, cycloheximide chase; 12 µM).
Under “log2 fold change”, CCc1cnc(N2CCC(c3nc(COc4ccc(-n5cnnn5)cc4)cs3)CC2)nc1 is recorded as 2.95 (HEK293T; RNA-seq, item: CHAC1 mRNA; 10 µM, 6 h; baseline: vehicle).
For COC(=O)[C@]12CCC(C)(C)C[C@H]1[C@H]1C(=O)C=C3[C@@]4(C)C=C(C#N)C(=O)C(C)(C)[C@@H]4CC[C@@]3(C)[C@]1(C)CC2, “point of departure” read 2.97 µM (HepG2; high content imaging, item: nuclear size; 24 h, expected PoD over plates).
The inhibition of COC(=O)[C@]12CCC(C)(C)C[C@H]1[C@H]1C(=O)C=C3[C@@]4(C)C=C(C#N)C(=O)C(C)(C)[C@@H]4CC[C@@]3(C)[C@]1(C)CC2 is reported as 94% (BT-12; cell viability, MTT; 10 µM, 72 h).
With CCN(CC)Cc1ccc2cc(COC(=O)Nc3ccc(C(=O)NO)cc3)ccc2c1 the viability was 93.2% (HBL-1; 0.1 µM, 120 h).
With Cn1c(Nc2nc3ccc(C(F)(F)F)cc3s2)nc2cc(C(=O)NCCOCCO)ccc21 the fold change was 3.19 (SH-SY5Y; RNA-seq, item: PLAT mRNA; 5 µM, 5 h; baseline: untreated cells).

Excerpt of the above:
For COC(=O)c1sc(-c2cccs2)cc1NC(=O)/C=C/C(=O)O, “fatty acid efflux” read “decreased” (3T3-L1 adipocytes; lipolysis; concentration not given, 24 h, with: 20 µM forskolin or basal).
With C[C@@H](N)[C@H]1CC[C@H](C(=O)Nc2ccncc2)CC1 the inhibition was 24% (HeLa expressing Ub(G76V)-GFP; Ub(G76V)-GFP degradation, cycloheximide chase; 12 µM).
